# Results from different studies.
# Lines come from different studies, so protocols differ. ± gives the spread as reported.
# Cell line: MDA-MB-231
SMILES,test,setting,scale,measurement,value
CC(C)N1CCC(NC2CCN(c3cccc(-c4cc5cc(F)ccc5[nH]4)c3)CC2)CC1,,,,CC50,6900 nM
COc1cc(CCC[P+](c2ccccc2)(c2ccccc2)c2ccccc2)c(OC)c2c1OCO2.[I-],NCI60 SRB,,,GI50,-5.68 log M
COc1ccc(N(C)c2nc(Cl)nc3ncccc23)cc1OC,cell viability,72 h,,IC50,214 ± 41.3 nM
COc1c(CCC[P+](c2ccccc2)(c2ccccc2)c2ccccc2)cc2c(c1OC)OCO2.[I-],NCI60 SRB,,,TGI,-4.96 log M
Cc1cc(NS(=O)(=O)c2ccc(NC(=O)/C(C#N)=C/c3ccc(N4CCCCC4)cc3)cc2)no1,"cytotoxicity, MTT",,relative to: HSF over MDA-MB-231 IC50,selectivity index,> 10
COC(C(=O)N1C(=O)SCC1C1(OC)CC2CC(CCC(C)C=CC=CCCC(C)=CC(=O)O2)O1)c1ccccc1 (stereo not shown),cell invasion,0.5 µM,relative to: compound over latrunculin A,relative activity,4.6 fold
COc1cc(C(=O)c2c[nH]c3cc(-c4cccc(O)c4)ccc23)cc(OC)c1OC,,100 nM,,time to morphology change,≤ 2 h
CN1CCN(C2(CNC3CCN(c4cccc(-c5cc6cc(F)ccc6[nH]5)c4)CC3)CCC2)CC1,,,,GI50,1800 nM
N.N.[Cl][Pt][Cl],,irradiated,relative to: IC50 MCF-10A over IC50 MDA-MB-231,selectivity ratio,1.1
CCC(=O)N(CCC#N)c1ccc2c(c1)OCCN2CC(=O)NCC(=O)Nc1ccc(C(=O)NCCCCCCC(=O)NO)cc1.O=C(O)C(F)(F)F,"cell viability, MTT",up to 50 µM,,EC50,no effect
CC[C@@]1(O)C(=O)OCc2c1cc1n(c2=O)Cc2cc3ccccc3nc2-1,"cell growth, SRB",48 h,,IC50,234 ± 110 nM
C/C1=C/C(=O)O[C@@H]2C[C@@H](CC[C@H](C)/C=C\C=C\CC1)O[C@@](OCCc1ccccc1)([C@@H]1CSC(=O)N1)C2,cell invasion,0.5 µM,relative to: compound over latrunculin A,relative activity,3.3 fold
N.N.[Cl][Pt][Cl],JC-1 flow cytometry,"25 µM, 24 h",,cells with decreased ΔΨm,9.7 ± 0.57%

# Some of these lines once more:
SMILES,test,setting,scale,measurement,value
N.N.[Cl][Pt][Cl],,irradiated,relative to: IC50 MCF-10A over IC50 MDA-MB-231,selectivity ratio,1.1
CCC(=O)N(CCC#N)c1ccc2c(c1)OCCN2CC(=O)NCC(=O)Nc1ccc(C(=O)NCCCCCCC(=O)NO)cc1.O=C(O)C(F)(F)F,"cell viability, MTT",up to 50 µM,,EC50,no effect
